# Experimental data from different studies.
# Each numbered part is a random draw from the data of one study; scales do not carry over between parts. Positions count from the first letter of the parent shown.

# Sample 1 — method: DHFR PCA, deep sequencing; matrix: yeast; together with: (+)-ABA 0.11 µM; relative to: wild-type fitted maximum; direction: higher = stronger binding
# Target: ABI1, truncated, D143A, DHFR fusion (Arabidopsis thaliana)
# Notes: methotrexate growth selection, single substitutions
# Starting sequence: PYL1, truncated, DHFR fusion (Arabidopsis thaliana); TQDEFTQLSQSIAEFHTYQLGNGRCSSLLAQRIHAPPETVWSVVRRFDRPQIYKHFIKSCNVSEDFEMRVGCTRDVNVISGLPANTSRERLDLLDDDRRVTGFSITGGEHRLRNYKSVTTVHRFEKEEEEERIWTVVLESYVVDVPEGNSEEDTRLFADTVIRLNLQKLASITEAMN; partner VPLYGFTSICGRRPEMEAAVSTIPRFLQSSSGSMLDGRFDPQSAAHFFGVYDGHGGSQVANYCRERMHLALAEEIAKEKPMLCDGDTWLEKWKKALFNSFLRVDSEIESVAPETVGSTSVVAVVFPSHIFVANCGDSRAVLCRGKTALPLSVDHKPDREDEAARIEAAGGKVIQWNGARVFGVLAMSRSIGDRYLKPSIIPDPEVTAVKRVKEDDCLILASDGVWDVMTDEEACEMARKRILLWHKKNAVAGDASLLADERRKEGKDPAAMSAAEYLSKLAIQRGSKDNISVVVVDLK
Substitution,relative binding score [%]
D48H,-9.99
V118H,8.21
R32G,6.71
R123V,-0.869
E147H,16.3
T160P,-4.06
V43R,-1.86
Q7G,34.4
S26V,3.07
Q10N,31.9
R163W,0.0809
H34M,48
F15Q,-4.13
Q51G,4.64
G21Y,5.37
L20G,36.9

# Sample 2 — target: OGT, full length, His-tagged (human); method: phage display, sequencing; matrix: in vitro; concentration: 1 µg OGT; relative to: input library; direction: higher = stronger binding; starting sequence: peptide; GDFPVMFMPKYSIIY
# Notes: single substitutions, 15-mer displayed peptide, unchanged parent 5.27
Substitution,fold enrichment [fold]
GDPPVMFMPKYSIIY [F3P],5.62
GDFPVMFSPKYSIIY [M8S],1.01
GDFPKMFMPKYSIIY [V5K],3.53
GDFPVWFMPKYSIIY [M6W],4.1
GDGPVMFMPKYSIIY [F3G],5.01
GDVPVMFMPKYSIIY [F3V],3.81
GDFPVMFMPKYRIIY [S12R],3.63
GDFPVMLMPKYSIIY [F7L],1.7
GDFPVMFMNKYSIIY [P9N],2.2
GDFPVSFMPKYSIIY [M6S],6.83
GDFWVMFMPKYSIIY [P4W],0.11
SDFPVMFMPKYSIIY [G1S],6.24
GDFPVGFMPKYSIIY [M6G],1.59
GDFPIMFMPKYSIIY [V5I],7.21

# Sample 3 — target: CCNB2, cyclin fold, Cln2 fusion (human); method: yeast growth competition, sequencing; matrix: yeast; notes: weak parent motif; relative to: not given; direction: higher = stronger binding
# Starting sequence: RBL2 docking peptide (human); STTRRRLFVENDS
Substitution,normalised enrichment score
F8K,0.366
D12A,-0.128
R5E,-0.376
F8G,0.4
R4M,-0.422
R5T,0.899
T3E,-0.463
N11A,0.149
R6N,-0.0794
R6V,0.435
L7R,0.273
F8H,-0.324
T2E,0.339

# Sample 4 — method: protein-binding microarray; molecule type: double-stranded DNA, one strand shown; matrix: in vitro; concentration: 0.8 µM; notes: whole 60-bp probe, no competitor; direction: higher = stronger binding; constant ends, left off below: … GTCTTGATTCGCTTGACGCTGCTG
# Target: Centromere-binding protein 1, full length, N-terminal tag (CBF1, Saccharomyces cerevisiae, UniProt P17106, residues 1-351)
# Chain of UniProt P17106 (whole entry, looked up): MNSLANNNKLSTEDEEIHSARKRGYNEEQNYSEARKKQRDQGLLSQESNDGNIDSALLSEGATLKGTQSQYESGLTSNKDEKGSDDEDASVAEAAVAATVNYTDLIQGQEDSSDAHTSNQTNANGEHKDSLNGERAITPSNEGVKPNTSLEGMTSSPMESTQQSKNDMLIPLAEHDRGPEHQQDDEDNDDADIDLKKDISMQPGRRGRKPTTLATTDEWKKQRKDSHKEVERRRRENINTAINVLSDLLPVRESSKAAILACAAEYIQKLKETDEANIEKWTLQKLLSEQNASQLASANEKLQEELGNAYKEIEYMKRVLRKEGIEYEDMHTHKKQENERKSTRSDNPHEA
Oligonucleotide,fluorescence intensity [a.u.]
GAATAGAACCAGCCGCACATGGCCGGAGAAACTTAG,542
CTACCAATTCTTGATCTGGTGATCCATACGATTTTC,897
GAAGTCTACATCTTGCATGTGACATAAGTAAGTTAG,2920
CTAGCCCAGATGGTTCTGATGTTCTTTATCTCTTTC,490
CTAGGGATGGCTCATCACGAACAGCAAACTGAATTC,552
CTAGTTATCCTAAATGACATCACGATGATAAATTTC,764
CTAAAATAGTCATATCACATGCGGATACACTTCTTC,1120
GAATTGCTGTGAAGAGTGGTGTGGATCCAAACGTAG,541
CTAAGCTGTTGTTTTCTGATGTCAATAACAGGGTTC,558
CTACCATATGGATACCATGTGGTATAAGAGGGCTTC,704
CTAAGTTTGAAGAATAATCTGATGCTTTTTACATTC,492
TGTACGAAGCTATATGATGTTAATATAGTAGTTAGG,543
GAAGCCATTATCATTTAGGTGACGCCTTGTTCTTAG,512
CTAAAAAGAGAAGACCCCCACGTGCCCTAAAAATTC,3000
CCTAACTACTATATGATCATGAAATAGCTTCGTACA,559
CCTAACTACTATAGTTGTGTGACATAGCTTCGTACA,549
CTAATGTGTGATGGACATCAGCATTCAATGTATTTC,517
CTAAGGGTTTAAGTCTACATCAGGATCACCTGCTTC,1000
GAATGCATTTGCTGTCTGCTGATGTCAATTAATTAG,889
CTATGCTCAAACGGTCGCGTGCTGAGCGGAACGTTC,793
CTATTTCGTGCAGCTTACATCAGCACAATCCATTTC,543
GAAGCACCGCACTCGCACGTGGCAACTATTTGCTAG,5330
GAAACCTCAGCTCGTCACGTGACGGTCGATGAATAG,44800
GAACAGGGGATTCATCTGATGATGGAAAAAGTTTAG,535

# Sample 5 — method: protein-binding microarray; molecule type: double-stranded DNA, one strand shown; matrix: in vitro; concentration: 250 nM; notes: 60-bp whole probe; together with: salmon DNA 0.4 mg/ml; relative to: random background probes; direction: higher = stronger binding; constant ends, left off below: GCCTAGCAC … GTCTTGATTCGCTTGACGCTGCTG
# Target: Interferon regulatory factor 5, full length, phosphomimetic (IRF5, Homo sapiens, UniProt Q13568-2, residues 1-514, K96S/S451D/S453D/S456D/S462D)
Oligonucleotide,log fluorescence [z-score]
AGAAACTTTTTTCTGATTGAGTGCTAG,2.41
GACGGTATCCCTTTCCTGACGTGCTAG,0.311
ATAGGTTCCGGTTTCGGTTAGTGCTAG,9.15
GTGCCTTTTTTTTTTTTTCTGTGCTAG,0.745
TTCTTTATGCACTCTTTACATGTGCTA,0.854
TTAGGTATCCTATTGCTTTAGTGCTAG,0.0298
GTACCACTCCAGTTCTGGGAGTGCTAG,0.0367
TCAAATATTTACCTCTCACTGTGCTAG,0.432
GAGGGTATCCTACTGCTGACGTGCTAG,-0.31
TTAGATTTCGGGTTACGATTAGTGCTA,5.93
GTCGGTTTCCTTATCCTGACGTGCTAG,1.24
TTAGGACTGGACTAACGGTTAGTGCTA,-0.441
GACGATTTCGGGACTGGAGACGTGCTA,1.51
CTGAGGCTGCCGTGGCCATGGTGCTAG,-0.715
TCAACTTTCAGTTCTCCACTGTGCTAG,5.88
TCATGCCTATTTTTCACACTGTGCTAG,0.622
ACCATTTTGTTTTTCATTATGTGCTAG,1.68
GACGGTTTCCTATCCCTGACGTGCTAG,0.602
TCATTTTTCTCACCACATACTGTGCTA,1.14
GACGGTTTGGGTCTCGGGACGTGCTAG,-0.191
GACGGTTCCCTTTACCTGACGTGCTAG,0.0209

# Sample 6 — method: protein binding microarray; molecule type: double-stranded DNA, one strand shown; matrix: in vitro; concentration: not given; relative to: not given; direction: higher = stronger binding
# Target: Histone acetyltransferase KAT6A, winged helix 1, GST fusion (KAT6A, Homo sapiens, UniProt Q92794, residues 1-85)
# Notes: 8-mer, flanks averaged, mean of 2 arrays, mostly near background
# Construct (chain): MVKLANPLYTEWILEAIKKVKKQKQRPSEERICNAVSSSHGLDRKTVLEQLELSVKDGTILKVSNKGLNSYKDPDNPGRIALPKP
Oligonucleotide,E-score
GATAGGAA,-0.161
GGACTGCC,0.00464
AGGGACCC,0.0735
ATGTGAGG,-0.0821
AGAAAAAG,-0.195
ACGTTACG,0.0655
ACCTTTAC,-0.0529
ACGATGCT,-0.00492
CATGCATA,0.0264
GGTGCAAC,-0.0457
AAGTACGC,0.131
ACTTCGTC,-0.00627
ACCTTTTG,-0.128
AATTCGGT,0.0177
AGGCGAAA,-0.14
CGCCACAC,0.19
CAAAGTAA,-0.161
ATGGTTTG,-0.0938
CCTCTTCC,-0.0289
GGTCGGCA,0.163
AAGCAGAA,-0.0934
AATCACGC,0.00649
CGTCTGAC,0.0924
CTATCCTC,-0.195
AAGCTCCA,-0.19

# Single results of other studies
Molecule,target,test,test system,setting,scale,measurement,result
"PhoQ, residues 284 288 289 292 302 303 ASASEQ","PhoP, residues 12 14 15 18 19 STWGI (Escherichia coli, UniProt P23836)","Sort-seq, item: YFP reporter",E. coli,"PhoQ-PhoP variant library, together with: 10 µM Mg2+","relative to: high Mg2+ state, higher = stronger signaling",fold induction,1.12

# Repeated from above (sample 4):
Oligonucleotide,fluorescence intensity [a.u.]
CTAGTTATCCTAAATGACATCACGATGATAAATTTC,764
CTAAAATAGTCATATCACATGCGGATACACTTCTTC,1120
GAATTGCTGTGAAGAGTGGTGTGGATCCAAACGTAG,541
CTAAGCTGTTGTTTTCTGATGTCAATAACAGGGTTC,558
CTACCATATGGATACCATGTGGTATAAGAGGGCTTC,704
CTAAGTTTGAAGAATAATCTGATGCTTTTTACATTC,492
TGTACGAAGCTATATGATGTTAATATAGTAGTTAGG,543
GAAGCCATTATCATTTAGGTGACGCCTTGTTCTTAG,512
CTAAAAAGAGAAGACCCCCACGTGCCCTAAAAATTC,3000
CCTAACTACTATATGATCATGAAATAGCTTCGTACA,559
CCTAACTACTATAGTTGTGTGACATAGCTTCGTACA,549
